{"data": "Published values from different studies", "NR1H2 ligand-binding domain": "Oxysterols receptor LXR-beta, ligand-binding domain (NR1H2, Homo sapiens, UniProt P55055)", "FFAR3": "Free fatty acid receptor 3 (FFAR3, Homo sapiens, UniProt O14843)", "CXCR4": "C-X-C chemokine receptor type 4 (CXCR4, Homo sapiens, UniProt P61073)", "Thyrotropin-releasing hormone receptor": "Thyrotropin-releasing hormone receptor (Mus musculus, UniProt P21761)", "note": "Lines come from different studies, so protocols differ. ± gives the spread as reported.", "sequence of UniProt P21761 (whole entry, looked up)": "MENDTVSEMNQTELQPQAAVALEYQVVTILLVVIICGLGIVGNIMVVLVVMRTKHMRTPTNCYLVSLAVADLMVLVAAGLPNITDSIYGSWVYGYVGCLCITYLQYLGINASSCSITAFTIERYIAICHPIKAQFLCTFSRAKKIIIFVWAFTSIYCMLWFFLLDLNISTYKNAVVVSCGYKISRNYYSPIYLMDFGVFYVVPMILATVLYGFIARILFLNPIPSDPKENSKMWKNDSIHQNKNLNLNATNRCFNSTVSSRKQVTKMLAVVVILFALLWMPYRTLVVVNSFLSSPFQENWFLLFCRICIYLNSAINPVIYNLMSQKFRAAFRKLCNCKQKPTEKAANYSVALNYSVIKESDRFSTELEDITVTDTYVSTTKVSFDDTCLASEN", "sequence of UniProt O14843 (whole entry, looked up)": "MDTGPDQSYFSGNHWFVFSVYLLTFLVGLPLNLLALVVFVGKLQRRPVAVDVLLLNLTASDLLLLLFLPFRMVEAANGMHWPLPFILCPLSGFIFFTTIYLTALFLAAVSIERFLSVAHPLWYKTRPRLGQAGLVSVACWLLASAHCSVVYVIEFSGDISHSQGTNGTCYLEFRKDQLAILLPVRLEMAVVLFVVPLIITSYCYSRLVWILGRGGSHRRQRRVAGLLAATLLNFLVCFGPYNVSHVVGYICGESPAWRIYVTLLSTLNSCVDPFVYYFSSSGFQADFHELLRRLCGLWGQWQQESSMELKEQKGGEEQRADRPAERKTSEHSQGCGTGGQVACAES", "sequence of UniProt P55055 (whole entry, looked up)": "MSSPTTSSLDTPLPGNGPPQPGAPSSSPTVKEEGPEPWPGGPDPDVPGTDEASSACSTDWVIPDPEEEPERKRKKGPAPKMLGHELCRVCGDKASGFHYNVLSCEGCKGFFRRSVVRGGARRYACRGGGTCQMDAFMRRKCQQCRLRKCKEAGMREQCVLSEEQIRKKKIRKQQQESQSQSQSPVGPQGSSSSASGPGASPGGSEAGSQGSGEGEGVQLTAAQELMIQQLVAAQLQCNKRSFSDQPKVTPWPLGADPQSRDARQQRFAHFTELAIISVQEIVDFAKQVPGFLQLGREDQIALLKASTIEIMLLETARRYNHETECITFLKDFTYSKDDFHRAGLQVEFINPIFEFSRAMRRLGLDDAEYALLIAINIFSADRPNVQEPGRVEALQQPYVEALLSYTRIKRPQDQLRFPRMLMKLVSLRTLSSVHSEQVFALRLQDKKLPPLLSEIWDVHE", "sequence of UniProt P41149 (whole entry, looked up)": "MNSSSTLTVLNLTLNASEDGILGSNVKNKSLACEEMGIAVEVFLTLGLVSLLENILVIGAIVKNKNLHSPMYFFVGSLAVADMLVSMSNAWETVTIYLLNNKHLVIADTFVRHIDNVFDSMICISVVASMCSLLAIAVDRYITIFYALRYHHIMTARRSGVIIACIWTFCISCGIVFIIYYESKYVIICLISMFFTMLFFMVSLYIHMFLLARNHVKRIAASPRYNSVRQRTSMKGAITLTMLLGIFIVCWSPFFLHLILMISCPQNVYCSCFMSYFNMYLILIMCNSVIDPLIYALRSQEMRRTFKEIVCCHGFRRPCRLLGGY", "sequence of UniProt Q96R45 (whole entry, looked up)": "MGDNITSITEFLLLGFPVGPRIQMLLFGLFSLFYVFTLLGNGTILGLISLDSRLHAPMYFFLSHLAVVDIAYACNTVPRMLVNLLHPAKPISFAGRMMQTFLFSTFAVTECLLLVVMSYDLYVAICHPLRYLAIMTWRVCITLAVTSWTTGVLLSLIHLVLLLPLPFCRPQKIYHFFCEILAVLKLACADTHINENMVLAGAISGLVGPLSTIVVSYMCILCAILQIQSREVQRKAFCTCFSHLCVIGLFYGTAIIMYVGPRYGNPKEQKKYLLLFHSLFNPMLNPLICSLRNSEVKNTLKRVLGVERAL", "sequence of UniProt Q6W5P4 (whole entry, looked up)": "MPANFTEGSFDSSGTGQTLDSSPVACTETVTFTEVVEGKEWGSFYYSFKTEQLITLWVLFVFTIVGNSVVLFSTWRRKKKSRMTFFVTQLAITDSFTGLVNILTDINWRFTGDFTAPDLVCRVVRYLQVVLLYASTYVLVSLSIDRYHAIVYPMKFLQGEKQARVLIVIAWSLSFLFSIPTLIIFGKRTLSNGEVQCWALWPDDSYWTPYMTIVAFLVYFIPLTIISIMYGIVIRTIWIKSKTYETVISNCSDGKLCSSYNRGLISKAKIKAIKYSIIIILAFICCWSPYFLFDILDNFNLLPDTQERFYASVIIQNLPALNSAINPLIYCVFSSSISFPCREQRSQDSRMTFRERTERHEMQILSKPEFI", "sequence of UniProt P30969 (whole entry, looked up)": "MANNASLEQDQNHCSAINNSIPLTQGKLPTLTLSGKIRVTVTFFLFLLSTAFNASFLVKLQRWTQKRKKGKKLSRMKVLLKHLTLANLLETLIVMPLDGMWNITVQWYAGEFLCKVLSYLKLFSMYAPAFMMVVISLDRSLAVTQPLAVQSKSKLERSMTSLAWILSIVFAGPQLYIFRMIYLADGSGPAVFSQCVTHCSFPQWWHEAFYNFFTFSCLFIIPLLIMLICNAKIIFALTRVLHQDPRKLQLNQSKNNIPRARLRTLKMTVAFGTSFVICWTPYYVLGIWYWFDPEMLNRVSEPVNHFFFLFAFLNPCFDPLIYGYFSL", "sequence of UniProt P50391 (whole entry, looked up)": "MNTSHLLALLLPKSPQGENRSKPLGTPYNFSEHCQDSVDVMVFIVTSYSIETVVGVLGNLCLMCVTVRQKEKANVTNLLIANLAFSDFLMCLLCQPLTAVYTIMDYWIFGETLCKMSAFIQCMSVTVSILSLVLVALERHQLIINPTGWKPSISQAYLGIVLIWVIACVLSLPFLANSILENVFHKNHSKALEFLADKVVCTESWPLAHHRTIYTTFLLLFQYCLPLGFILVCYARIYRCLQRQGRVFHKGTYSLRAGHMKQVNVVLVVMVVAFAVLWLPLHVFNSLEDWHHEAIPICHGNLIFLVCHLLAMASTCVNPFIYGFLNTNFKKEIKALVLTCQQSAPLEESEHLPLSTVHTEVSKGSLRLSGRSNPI", "sequence of UniProt Q8K424 (whole entry, looked up)": "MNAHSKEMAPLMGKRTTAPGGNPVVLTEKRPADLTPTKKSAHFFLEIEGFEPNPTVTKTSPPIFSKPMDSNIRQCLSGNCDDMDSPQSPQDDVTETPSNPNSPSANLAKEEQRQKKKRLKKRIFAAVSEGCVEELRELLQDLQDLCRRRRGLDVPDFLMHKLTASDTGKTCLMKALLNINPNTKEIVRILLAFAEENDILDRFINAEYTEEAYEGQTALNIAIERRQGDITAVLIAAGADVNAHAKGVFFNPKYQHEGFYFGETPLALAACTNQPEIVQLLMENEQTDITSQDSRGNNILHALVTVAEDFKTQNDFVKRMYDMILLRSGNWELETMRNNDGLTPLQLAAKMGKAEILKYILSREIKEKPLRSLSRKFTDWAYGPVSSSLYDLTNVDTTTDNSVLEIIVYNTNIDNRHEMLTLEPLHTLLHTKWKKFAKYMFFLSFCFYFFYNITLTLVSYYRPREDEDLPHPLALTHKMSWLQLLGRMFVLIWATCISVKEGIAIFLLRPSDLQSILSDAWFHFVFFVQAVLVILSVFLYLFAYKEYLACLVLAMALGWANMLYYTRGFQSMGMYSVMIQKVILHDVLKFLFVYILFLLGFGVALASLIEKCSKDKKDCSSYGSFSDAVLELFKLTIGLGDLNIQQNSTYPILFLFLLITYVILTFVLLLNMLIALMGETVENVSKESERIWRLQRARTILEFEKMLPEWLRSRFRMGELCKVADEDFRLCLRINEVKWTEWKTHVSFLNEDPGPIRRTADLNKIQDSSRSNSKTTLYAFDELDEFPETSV", "sequence of UniProt Q03431 (whole entry, looked up)": "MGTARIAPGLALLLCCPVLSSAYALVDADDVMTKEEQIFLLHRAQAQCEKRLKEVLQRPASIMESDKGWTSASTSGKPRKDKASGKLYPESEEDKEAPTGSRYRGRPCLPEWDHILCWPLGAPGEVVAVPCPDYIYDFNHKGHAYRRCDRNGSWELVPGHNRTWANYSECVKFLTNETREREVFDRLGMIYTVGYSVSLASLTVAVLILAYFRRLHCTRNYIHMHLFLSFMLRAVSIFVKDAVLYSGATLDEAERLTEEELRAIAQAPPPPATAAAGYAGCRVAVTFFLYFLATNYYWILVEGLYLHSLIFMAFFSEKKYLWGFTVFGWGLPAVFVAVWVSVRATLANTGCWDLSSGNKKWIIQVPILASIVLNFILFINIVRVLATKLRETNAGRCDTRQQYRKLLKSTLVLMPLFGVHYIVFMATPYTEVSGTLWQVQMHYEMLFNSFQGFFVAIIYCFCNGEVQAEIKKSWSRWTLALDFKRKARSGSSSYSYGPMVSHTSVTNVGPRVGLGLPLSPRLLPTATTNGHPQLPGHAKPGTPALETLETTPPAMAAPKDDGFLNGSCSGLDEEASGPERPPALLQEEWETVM", "sequence of UniProt P41586 (whole entry, looked up)": "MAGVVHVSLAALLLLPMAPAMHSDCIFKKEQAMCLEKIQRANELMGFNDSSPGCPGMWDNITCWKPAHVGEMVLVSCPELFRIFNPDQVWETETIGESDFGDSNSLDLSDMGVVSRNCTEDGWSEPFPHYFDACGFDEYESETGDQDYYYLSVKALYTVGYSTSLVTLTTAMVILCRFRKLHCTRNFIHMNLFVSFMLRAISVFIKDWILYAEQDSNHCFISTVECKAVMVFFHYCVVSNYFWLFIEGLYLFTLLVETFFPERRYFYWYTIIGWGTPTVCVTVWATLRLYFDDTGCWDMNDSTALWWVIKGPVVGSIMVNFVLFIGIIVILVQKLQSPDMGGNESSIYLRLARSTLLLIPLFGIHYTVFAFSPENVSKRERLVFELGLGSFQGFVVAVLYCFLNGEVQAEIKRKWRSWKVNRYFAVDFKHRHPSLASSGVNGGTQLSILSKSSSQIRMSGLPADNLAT"}
{"Compound": "CC(C)=CCCC(C)CC=O (centres unmarked)", "target": "Trpv3 (Mus musculus, UniProt Q8K424)", "assay": "ion current, agonist, patch clamp", "test system": "mouse", "EC50": "5290 ± 170 µM"}
{"Compound": "CC(=O)Nc1ccc(Sc2ncccc2C(=O)Nc2ccc(F)cc2)cn1", "target": "CCKAR (Homo sapiens, UniProt P32238)", "test system": "human cells", "EC50": "6.5 µM"}
{"Compound": "CC[C@H](C)[C@H](NC(=O)[C@H](CCC(=O)O)NC(=O)[C@H](CO)NC(=O)[C@@H](NC(=O)[C@@H](N)CO)C(C)C)C(=O)N[C@@H](CCC(N)=O)C(=O)N[C@@H](CC(C)C)C(=O)N[C@@H](CCSC)C(=O)N[C@@H](Cc1c[nH]cn1)C(=O)N[C@@H](CC(N)=O)C(=O)N[C@@H](CC(C)C)C(=O)NCC(=O)N[C@@H](CCCCN)C(=O)N[C@@H](Cc1c[nH]cn1)C(=O)N[C@@H](CC(C)C)C(=O)N[C@@H](CC(N)=O)C(=O)N[C@@H](CO)C(=O)N[C@@H](CCSC)C(=O)N[C@@H](CCC(=O)O)C(=O)N[C@@H](CCCNC(=N)N)C(=O)N[C@H](C(=O)N[C@@H](CCC(=O)O)C(=O)N[C@@H](Cc1c[nH]c2ccccc12)C(=O)N[C@@H](CC(C)C)C(=O)N[C@@H](CS)C(=O)N[C@@H](CCCCN)C(=O)N[C@@H](CCCCN)C(=O)N[C@@H](CC(C)C)C(=O)N[C@@H](CCC(N)=O)C(=O)N[C@@H](CC(=O)O)C(=O)N[C@H](C(=O)N[C@@H](Cc1c[nH]cn1)C(=O)N[C@@H](CC(N)=O)C(=O)N[C@@H](Cc1ccccc1)C(=O)O)C(C)C)C(C)C", "target": "PTH1R (Homo sapiens, UniProt Q03431)", "assay": "cAMP production, agonist, GloSensor luminescence", "test system": "SGS-72", "setting": "10 to 15 min", "EC50": "0.00027 ± 2e-05 µM"}
{"Compound": "CC(C)C[C@H](NC(=O)[C@@H](Cc1c[nH]c2ccccc12)NC(=O)[C@H](Cc1c[nH]cn1)NC(=O)[C@H](CO)NC(=O)[C@H](Cc1c[nH]c2ccccc12)NC(=O)[C@H](Cc1c[nH]cn1)NC(=O)[C@@H]1CCC(=O)N1)C(=O)N[C@@H](CCCNC(=N)N)C(=O)N1CCC[C@H]1C(=O)NCC(N)=O", "target": "Gonadotropin-releasing hormone receptor (Rattus norvegicus, UniProt P30969)", "assay": "inositol phosphate accumulation, agonist", "test system": "HEK293 expressing Gonadotropin-releasing hormone receptor", "setting": "60 min, 37 °C, together with: 10 mM LiCl", "EC50": "0.0006 ± 0.0002 µM"}
{"Compound": "CN(C(=O)c1ccc(F)cc1)c1ccc(C(O)(C(F)(F)F)C(F)(F)F)cc1", "target": "NR1H2 ligand-binding domain", "assay": "agonist", "setting": "concentration not given", "EC50": "1.72 ± 0.04 µM"}
{"Compound": "C/C=C/CC(=O)O", "target": "FFAR3", "assay": "agonist", "EC50": "83.2 µM"}
{"Compound": "CC(C=O)Cc1ccc(C(C)(C)C)cc1 (centres unmarked)", "target": "Olfactory receptor 2A7 (OR2A7, Homo sapiens, UniProt Q96R45)", "assay": "GFP reporter gene, agonist", "test system": "yeast expressing OR2A7", "setting": "4 h, 1% DMSO", "EC50": "110 µM"}
{"Compound": "C[C@H](NC(=O)[C@H](CC(N)=O)NC(=O)[C@H](Cc1c[nH]c2ccccc12)NC(=O)[C@H](CCCNC(=N)N)NC(=O)[C@@H](Cc1ccccc1)NC(=O)[C@H](Cc1c[nH]cn1)NC(=O)[C@H](CCCN=[N+]=[N-])NC(=O)[C@@H](N)Cc1ccc(O)cc1)C(=O)N[C@@H](Cc1ccccc1)C(=O)N[C@@H](CCCN=[N+]=[N-])C(=O)N[C@@H](Cc1ccc(O)cc1)C(N)=O", "target": "Melanocortin receptor 5 (Mus musculus, UniProt P41149)", "assay": "agonist", "EC50": "0.036 ± 0.007 µM"}
{"Compound": "CCOc1ccccc1-c1nnc2n1N=C(c1ccc(N)cc1)CS2", "target": "CXCR4", "assay": "β-arrestin recruitment, agonist", "EC50": "> 10 µM"}
{"Compound": "CN(C(=O)C1(c2ccccc2)CCCC1)c1ccc(C(O)(C(F)(F)F)C(F)(F)F)cc1", "target": "NR1H2 ligand-binding domain", "assay": "agonist", "setting": "concentration not given", "EC50": "> 10 µM"}
{"Compound": "CC[C@H](C)[C@H](NC(=O)CNC(=O)C1CCN(C(=O)[C@H](CO)NC(=O)[C@@H](N)Cc2c[nH]cn2)CC1)C(=O)N[C@@H](Cc1ccccc1)C(=O)N[C@H](C(=O)N[C@@H](CC(=O)O)C(=O)N[C@@H](CO)C(=O)N[C@@H](Cc1ccc(O)cc1)C(=O)N[C@@H](CO)C(=O)N[C@@H](CCCNC(=N)N)C(=O)N[C@@H](Cc1ccc(O)cc1)C(=O)N[C@@H](CCCNC(=N)N)C(=O)N[C@@H](CCCCN)C(=O)NC(C)(C)C(=O)N[C@@H](C)C(=O)N[C@@H](C)C(=O)N[C@H](C(=O)N[C@@H](CCCCN)C(=O)N[C@@H](CCCCN)C(=O)N[C@@H](Cc1ccc(O)cc1)C(=O)N[C@@H](CC(C)C)C(=O)N[C@@H](C)C(=O)N[C@@H](C)C(=O)N[C@H](C(=O)N[C@@H](CC(C)C)C(=O)NC(C)(C)C(=O)N[C@@H](CCCCN)C(=O)N[C@@H](CCCNC(=N)N)C(=O)N[C@@H](Cc1ccc(O)cc1)C(=O)N[C@@H](CCCCN)C(=O)N[C@@H](CCC(N)=O)C(=O)N[C@@H](CCCCN)C(=O)N[C@H](C(=O)N[C@@H](CCCCN)C(=O)N[C@@H](CC(N)=O)C(=O)N[C@H](CCCCN)C(N)=O)C(C)C)C(C)C)C(C)C)[C@@H](C)O", "target": "ADCYAP1R1 (Homo sapiens, UniProt P41586)", "assay": "cAMP, agonist, radiometric", "EC50": "> 1 µM"}
{"Compound": "CCCC(=O)O", "target": "FFAR3", "assay": "agonist", "EC50": "107 µM"}
{"Compound": "CCCn1cnc(C[C@H](NC(=O)c2cnc(C)cn2)C(=O)N2CCC[C@H]2C(N)=O)c1", "target": "Thyrotropin-releasing hormone receptor", "assay": "calcium signal, agonist, fluorescence", "EC50": "4.46 µM"}
{"Compound": "CC(C)CN(NC(=O)[C@H](CCCNC(=N)N)NC(=O)[C@H](Cc1ccc(O)cc1)NC(=O)CCCCCCC(=O)N[C@@H](Cc1ccc(O)cc1)C(=O)N[C@@H](CCCNC(=N)N)C(=O)NN(CC(C)C)C(=O)N[C@@H](CCCNC(=N)N)C(=O)N[C@@H](Cc1ccc(O)cc1)C(N)=O)C(=O)N[C@@H](CCCNC(=N)N)C(=O)N[C@@H](Cc1ccc(O)cc1)C(N)=O", "target": "NPY4R (Homo sapiens, UniProt P50391)", "assay": "reporter gene, agonist, luciferase", "EC50": "0.22 µM"}
{"Compound": "Cc1cnc(C(=O)N[C@@H](Cc2cn(C)cn2)C(=O)N2CCC[C@H]2C(N)=O)cn1", "target": "Thyrotropin-releasing hormone receptor", "assay": "calcium signal, agonist, fluorescence", "EC50": "0.27 µM"}
{"Compound": "CCOC(=O)CNc1ccc(C2=Nn3c(nnc3-c3ccccc3OCC)SC2)cc1", "target": "CXCR4", "assay": "β-arrestin recruitment, agonist", "EC50": "> 5 µM"}
{"Compound": "N=C(N)NCCC[C@H](NC(=O)[C@H](Cc1ccccc1)NC(=O)[C@@H](N)CO)C(=O)N[C@@H](CC(N)=O)C(N)=O", "target": "NPSR1 (Homo sapiens, UniProt Q6W5P4)", "assay": "calcium signal, agonist", "EC50": "0.998 µM"}
{"note": "Some of these lines once more:"}
{"Compound": "CC(C=O)Cc1ccc(C(C)(C)C)cc1 (centres unmarked)", "target": "Olfactory receptor 2A7 (OR2A7, Homo sapiens, UniProt Q96R45)", "assay": "GFP reporter gene, agonist", "test system": "yeast expressing OR2A7", "setting": "4 h, 1% DMSO", "EC50": "110 µM"}
{"Compound": "C[C@H](NC(=O)[C@H](CC(N)=O)NC(=O)[C@H](Cc1c[nH]c2ccccc12)NC(=O)[C@H](CCCNC(=N)N)NC(=O)[C@@H](Cc1ccccc1)NC(=O)[C@H](Cc1c[nH]cn1)NC(=O)[C@H](CCCN=[N+]=[N-])NC(=O)[C@@H](N)Cc1ccc(O)cc1)C(=O)N[C@@H](Cc1ccccc1)C(=O)N[C@@H](CCCN=[N+]=[N-])C(=O)N[C@@H](Cc1ccc(O)cc1)C(N)=O", "target": "Melanocortin receptor 5 (Mus musculus, UniProt P41149)", "assay": "agonist", "EC50": "0.036 ± 0.007 µM"}
